# Experimental data pooled from the literature.
# Every numbered part comes from another study and shows a few of its results, in no order. Positions count from the first letter of the parent shown.

# Set 1
# Target: Centromere-binding protein 1, full length, His-tagged (CBF1, Saccharomyces cerevisiae, UniProt P17106, residues 1-351)
# Sequence of UniProt P17106 (whole entry, looked up): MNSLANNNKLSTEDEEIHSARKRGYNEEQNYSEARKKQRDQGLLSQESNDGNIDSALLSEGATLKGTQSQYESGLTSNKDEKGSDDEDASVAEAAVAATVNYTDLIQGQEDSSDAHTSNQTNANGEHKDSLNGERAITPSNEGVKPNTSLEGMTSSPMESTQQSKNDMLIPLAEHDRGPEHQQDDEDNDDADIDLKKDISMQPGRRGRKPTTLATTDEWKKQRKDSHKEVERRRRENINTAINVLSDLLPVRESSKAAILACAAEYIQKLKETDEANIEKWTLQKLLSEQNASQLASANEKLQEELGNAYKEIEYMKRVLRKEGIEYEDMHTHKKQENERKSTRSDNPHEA
# Method: competition protein-binding microarray
# Molecule type: double-stranded DNA, one strand shown
# Medium: in vitro
# Concentration: 2 µM
# Setting: whole 60-bp probe, lowest competitor level
# Together with: Pho4 competitor, 0.05 µM
# Direction: higher = stronger binding
# All sequences stand within: … GTCTTGATTCGCTTGACGCTGCTG
Sequence,fluorescence intensity
TGGCCCTTTCACCAACACGTGCCAGTTTCCAGAAGG,2250 a.u.
TCCAGTACGGACTGGCACGTGTGTTCCCACCAGGGT,905 a.u.
ACAATGGATCCAAATCATGTGCCAGGGAGTGAACCC,338 a.u.
CTTTCCCGATCTTCCCACGTGTTTTTAGCACATTTG,644 a.u.
AAATTACTAAGTTGTCACATAACTTACCCCGTATGA,86.5 a.u.
CATACCCAACCTTGTTACGTGGGTGAAGATATTTGT,72.2 a.u.
TCGCTTCCATTGCTGCCCGTGAAACTGCAAAGGCCA,64.1 a.u.
TGCGCAACAACTTGCTGCGTGGGTGTATGTCTAGAA,63.7 a.u.
CCGCGGATGATTTCTCACGTTTATCTGAAGAGGACT,98.8 a.u.
CGAATAACTTTCAAACGCGTGCGATGTTTGTTACCA,93.1 a.u.
TGAATTTTCGCGAGTCACGTCGTAACTCATATGCTT,165 a.u.
CGGGGTTAAGTTTGCTCAGTGGGTGGCTTGCAGCAG,69.8 a.u.
ACAACCATCTATGATGACGTGTTGACATTATCAAAC,95.2 a.u.
GACCGTCTCTCCCAACACGTGCCAGAGCTTGTTGAT,1490 a.u.
GCTTTCGTACTGCTCCAGGTGTGGCTTGATGTCCTA,61.4 a.u.
CTAACGAAGGTTTGAGTGGTGGGTGACAAGCCAAGT,74.8 a.u.
TTTGTTGCAACTATCCGCGTGGCCGATTGAGAGTCC,91.5 a.u.

# Set 2
# Target: Interferon regulatory factor 7, full length, phosphomimetic (IRF7, Homo sapiens, UniProt Q92985, residues 1-503, S101K/S471D/S472D/S475D/S476D/S477D/S483D/S484D/S487D)
# Sequence of UniProt Q92985 (whole entry, unmodified, looked up): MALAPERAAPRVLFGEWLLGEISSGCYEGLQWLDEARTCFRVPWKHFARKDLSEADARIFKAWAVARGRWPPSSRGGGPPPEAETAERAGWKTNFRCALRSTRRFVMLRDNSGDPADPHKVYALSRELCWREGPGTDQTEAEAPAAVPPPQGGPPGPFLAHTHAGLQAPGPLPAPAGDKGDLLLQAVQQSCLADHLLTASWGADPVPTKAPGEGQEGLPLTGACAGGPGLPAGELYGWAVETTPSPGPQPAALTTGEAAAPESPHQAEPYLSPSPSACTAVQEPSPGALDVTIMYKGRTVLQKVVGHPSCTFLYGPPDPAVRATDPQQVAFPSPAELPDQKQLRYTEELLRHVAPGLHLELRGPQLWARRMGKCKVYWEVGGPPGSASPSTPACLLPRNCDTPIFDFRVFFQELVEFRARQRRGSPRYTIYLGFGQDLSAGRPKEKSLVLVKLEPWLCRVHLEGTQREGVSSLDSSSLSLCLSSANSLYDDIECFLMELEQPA
# Method: protein-binding microarray
# Molecule type: double-stranded DNA, one strand shown
# Medium: in vitro
# Concentration: 250 nM
# Setting: 60-bp whole probe
# Together with: salmon DNA 0.4 mg/ml
# Reference: random background probes
# Direction: higher = stronger binding
# All sequences stand within: GCCTAGCAC … GTCTTGATTCGCTTGACGCTGCTG
Sequence,log fluorescence
GTAGGACTGGACACTGGGTTAGTGCTA,-0.905 z-score
AAGCCAGCCAAGGCCACTGTGTGCTAG,-1.02 z-score
TTTGAACTGAGACTGGATTAGTGCTAG,-0.155 z-score
TTGCTTGTGTTTATTGTGACGTGCTAG,-0.449 z-score
GTAGGTTTCCTTTTCCTTTAGTGCTAG,6.65 z-score
GACGGTATGCTACTGCTGACGTGCTAG,-0.796 z-score
TTAGGTATCGGGTTTCGGCTAGTGCTA,3.13 z-score
TTAGGACTGGGGTTCGGTTAGTGCTAG,1.01 z-score
CTCCAACAAGGCTATCCCTCGTGCTAG,-0.49 z-score
GTCGGTTTCGGTTCCGGGACGTGCTAG,13.3 z-score
GACGGTCTCGGGCTGGGGACGTGCTAG,-0.111 z-score
GTCATTTTCTCTTATTCTAAGTGCTAG,1.86 z-score
TTAGGTTTCGGGTTTCGGTTCGTGCTA,13.9 z-score
TTAGGTTTCGGGTTTCGATTAGTGCTA,13.2 z-score
TCAAATTTCCCTCTGCTACTGTGCTAG,0.789 z-score
CTCTCCATGTGTTTAAAAAGGTGCTAG,0.622 z-score
GACGGTTTCTGACTGGGGACGTGCTAG,1.03 z-score
AAGGTTACCCATCTCAAGTAGTGCTAG,0.438 z-score
GACGATCTCGGACTGGGGACGTGCTAG,-0.165 z-score
TCAAGTTTATTTATTTTACTGTGCTAG,0.12 z-score

# Set 3
# Target: CCNF, cyclin fold, Cln2 fusion (human)
# Method: yeast growth competition, sequencing
# Medium: yeast
# Setting: strong parent motif
# Reference: not given
# Direction: higher = stronger binding
# Parent: SLBP docking peptide (human); ARYKRKLLINDFG
Change,normalised enrichment score
I9P,1.71
A1V,1.18
L7C,0.381
R5W,1.51
G13T,2.03
G13W,1.65
D11M,3.51
K4Q,0.977
K4S,1.58
K4T,0.263
L7N,1.25
D11N,1.63
R2P,2.04
F12L,2.34
I9M,2.79
A1N,1.51

# Set 4
# Target: RNA binding protein fox-1 homolog 2, RRM domain, GST-SBP tag (RBFOX2, Homo sapiens, UniProt O43251-10, residues 100-194)
# Method: RNA Bind-n-Seq
# Molecule type: RNA
# Medium: in vitro
# Concentration: 365 nM
# Setting: natural RNA segment, single round, ends assumed
# Reference: no-protein control
# Direction: higher = stronger binding
# All sequences stand within: GGGAGUUCUACAGUCCGACGAUC … UGGAAUUCUCGGGUGCCAA
# Residues (chain): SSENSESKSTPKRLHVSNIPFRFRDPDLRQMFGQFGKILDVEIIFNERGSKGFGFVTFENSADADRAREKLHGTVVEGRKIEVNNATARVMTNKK
Sequence,RBNS enrichment (R)
UUAUGAAACUCCUACUGGAGCUCAAUUUGUAAUUUAGAAACAUUUAAUUUUGUUAAUCCUGUCUGGGACAUUUAGGUAACAUCUAAAGCAUUAUUGCUUUAGAAUGUUCA,0.85
AUACCUAAGCAAACCCAGUGUCAGGAUGGUAAUUCUUAUUCUUUCGUUCAGUUAAGUUUUUCCCUUCAUCUGGGCACUGAAGGGAUAUGUGAAACAAUGUUAACAUUUUU,0.625
UGACUGAGAAUAGUGACAUGUCUGUCUUGUGACCAGAUAUGAGUGUGCAUAAGGUCCUGUCUAGCCGAGACUGACUGGGGGGGACUGUAUAGGAGACUGACGGGGAGCAG,0.545
AUGCUUUGUUUGGAUAUGGAGUGAACACAAUUAUGUACCAAAUUUAACUUGGCAAACUUUCUAUUGCCUGUCCCAUGUGCAUCUUAUUUAAAAUUUCCCCCAUGGAAAUC,1.08
GGCUGGACCACCAUCUGUACCGUUGCGUCCACAGUGUGCAUUCUGAGGUAUCACUCAGGGUGCCAAGUACACACUCAUCCUCCAGGCAACAGAGAGGAUGGGGCUCCCCG,0.193
CAGCAGUCCCAGUAUUCUCAGAGCAUGUGUCAGAGUGUUGUUCCGUUAACCUUUUUGUAAAUACUGCUUGACCGUACUCUCACAUGUGGCAAAAUAUGGUUUGGUUUUUC,9.57
AUUUCUCCAACCACUCAUCCCUCUUUUUCUUUCUUCCACCACUCCCCACCCCAGCUGUAGUUAAUUUCAGUGCCUUACAAAUCCUAAGCUCAGAGAAAGUUCCAUUUCCG,1.29
UUGACUAAAACAAGAUAAUGAGACAUAAUUUUCUUUAUAAUGUGUACAACACCUAAUAUACACUAACAGCAGUAAGACUAAGCCAGGCAGUCUUAAAAAAUUCUAUCAGA,0.429
AUGGUGUUUUUAAAAGGCCAAGUGUUGCAAAAGUUUGCACGUGCAACCGUAUAUUAAUCGCCAGUGUUUAAAACUGGUUUAUCAGAAUUUAUAUUUUUGUCUCUCCUGCC,1.43
AUUUAAUGUCUAUACAGUAAAAUUAUUCAAACUUCAAACCAGUAUUGAAAGCAGUUGGAAACCAGCUAAUAGUUUCUUAAUCUCAGAUUUCGAGAUGAAUGUAAACUGUA,0.385
CCUGCUUUUCAUACAGAACUAGCCAAUGUAAAGAUGACUCACAUGUAAAUACUUUUUUCCAUUUCACACCGUUGUAUUAUAAGUGUAUAUGGCGACUCCUUUUCCAGAAA,0.701
CCGAGUCUUCUUAGAUGACUGAGCACUGCUUGAUGUUGUGUUUUGAAUAAUUUAAUCUGUACAAUAAAUACAGUAUAGGCUGAUCAAGGAGCAUUUUGUAAGCUGCCCUC,0.453

# Set 5
# Target: RING finger protein unkempt homolog, zinc fingers 1-6, GST-SBP tag (UNK, Homo sapiens, UniProt Q9C0B0, residues 30-357)
# Method: RNA Bind-n-Seq
# Molecule type: RNA
# Medium: in vitro
# Concentration: not given
# Setting: RNA with constant flanks, ends assumed
# Reference: input RNA pool
# Direction: higher = stronger binding
# All sequences stand within: GGGAGUUCUACAGUCCGACGAUC … CAACAGAGGAUUGAGCAUCA
# Target sequence (chain): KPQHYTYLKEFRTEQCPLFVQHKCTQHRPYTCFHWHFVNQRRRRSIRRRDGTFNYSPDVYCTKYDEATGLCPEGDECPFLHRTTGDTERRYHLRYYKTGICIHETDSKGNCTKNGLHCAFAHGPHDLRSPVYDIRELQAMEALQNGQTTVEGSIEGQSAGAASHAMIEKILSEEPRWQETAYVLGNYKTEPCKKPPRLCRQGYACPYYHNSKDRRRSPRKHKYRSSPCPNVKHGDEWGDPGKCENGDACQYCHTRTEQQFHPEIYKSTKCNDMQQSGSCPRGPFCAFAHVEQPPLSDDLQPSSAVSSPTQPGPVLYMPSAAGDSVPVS
Sequence,bound/input enrichment [ratio]
GAUUGCUGGCGAGGAGGAGGAGUUCAUGUAGUGUUUGAGUGAAGCUUGAGUCACCAUGAGCCGCCGUUUAGGAAAAGAAAAAGACUCUAAAGAGAAAGACCCCAAAGUACCGUCUGCCAA,0.336
AUCCUCUCUGGAACAUCAGACCUGCUCCUUACCUUCGAUGAGGCUGAGGUCCGUAAAAUUAUCCGAGUUUGCAAAGGAAUUUUGGAAUAUCUUACAGUGGCAGAGGUGGUGGAGACUAUG,0.27
ACGCCAAAGCCACUUCGAAGUAGUGCUGACCCUGCACUCAAUCAAGAAGUUGCAUUAAAAUCCGAACCAAAUCCAGAGUCACUGGAACUUUCUUUUACCAUGCCCCAGAUUCAGGAUCAG,0.153
GAGGUUCCUGCGGACUAGCGGUGGCUUCGCGUGGGUGGAGGAGGCGCGGCUGCAGUCUUUAAGAAACCGAAAUGGCUUCCAAAAGAGCUCUGGUCAUCCUGGCCAAAGGAGCAGAGGAGA,0.213
UUUUUAGAGUGUGGGAAAACCAAUCUGAGAAGAACAACUUACCUUGUCCUUGAUGAAGCUGACCGGAUGCUUGAUAUGGGAUUUGAACCCCAGAUAAGGAAAAUUGUGGAUCAAAUAAGA,0.219
GACAGUGAAAAUGCUGAACCAGAUCUGGACGACAAUGAGGAUGAGGAGGAGCCUGCCGCCGAAAUUGAACCUGAGCCAGAGCCUCAGCCUGUGACCCCAGCCCCACCACCCGCCAAGAAG,0.225
GAGACCCUGCGCAUGCACGCUGGCUCCCAGCUCACUAGGCUGUCACCCAGUCCUGUCAUUCUCCGACCAUUCAUCUGUCUGUCCAUUUUGCACGAAGAUUCCCCUCUCCUCCCCAACCCU,0.562
AAAAGGAAAGAGCCAAAUAAAAGCAUCAAGCAUUGCACAGUUCUCUCCAAUAACACCGAUCAUCUCUUACUGAAUUUAACACUGUCUGAUAUCAUGGUCUCCCUGGCAAAUGCGUCAACU,0.0729
UCCUUGGAACCCAGUCAUAUAGGUGACCUGCAGAAAGCAGACACCAGUAGUCAAGGUGCUUCCGUGUUUCUCUCAAAGGACUACGAGAUAGAAAGUCAAAAUCCUCUGGCCUCUCCUACG,0.428
CUGAAGGAAACAGCAUUUAAAUUUAAAGCCCUGAAGAAGGUUGCACAGUUGGCAGUUAUAAACCGCCCCGAAAAGGCUUUUUGGAACUGGGUAGAAAAUUAUCCGGAUGAAUUUACAAAG,0.213
CUUUCUGACUAUCAGCGUAUUCGAGUGGAAAAUGUGUGUAAAAGGCUUAAUCUCCAGCCUUCCGCUUAUCUUUGGCAGAGAAACCAGGAAGAUUUGCUCAGAGAGAUGAUAUCAUCUAAC,0.17
